# Measurements pooled from the literature.
# Every numbered part comes from another study and shows a few of its results, in no order.

# Study 1 — method: RNA Bind-n-Seq; form: RNA; medium: in vitro; concentration: 20 nM; notes: 6-mer, flanks averaged, single round; added: 150 mM KCl; reference: input library; reading: higher = stronger binding
# Target: TAR DNA-binding protein 43, full length, His tag (TARDBP, Homo sapiens, UniProt Q13148, residues 1-414)
Oligonucleotide,6-mer enrichment (R)
CAGCUG,0.853
GUGGCC,1.43
GCCAGG,1.91
GAAACA,0.699
CCUGGC,0.813
UUCGAA,0.62

# Study 2 — method: universal PBM; form: double-stranded DNA, one strand shown; medium: in vitro; concentration: not given; reading: higher = stronger binding
# Target: Sal-like protein 4, full length isoform B (SALL4, Homo sapiens, UniProt Q9UJQ4-2, residues 1-616)
# Notes: 8-mer, flanks averaged, mean of replicates
# Residues (chain): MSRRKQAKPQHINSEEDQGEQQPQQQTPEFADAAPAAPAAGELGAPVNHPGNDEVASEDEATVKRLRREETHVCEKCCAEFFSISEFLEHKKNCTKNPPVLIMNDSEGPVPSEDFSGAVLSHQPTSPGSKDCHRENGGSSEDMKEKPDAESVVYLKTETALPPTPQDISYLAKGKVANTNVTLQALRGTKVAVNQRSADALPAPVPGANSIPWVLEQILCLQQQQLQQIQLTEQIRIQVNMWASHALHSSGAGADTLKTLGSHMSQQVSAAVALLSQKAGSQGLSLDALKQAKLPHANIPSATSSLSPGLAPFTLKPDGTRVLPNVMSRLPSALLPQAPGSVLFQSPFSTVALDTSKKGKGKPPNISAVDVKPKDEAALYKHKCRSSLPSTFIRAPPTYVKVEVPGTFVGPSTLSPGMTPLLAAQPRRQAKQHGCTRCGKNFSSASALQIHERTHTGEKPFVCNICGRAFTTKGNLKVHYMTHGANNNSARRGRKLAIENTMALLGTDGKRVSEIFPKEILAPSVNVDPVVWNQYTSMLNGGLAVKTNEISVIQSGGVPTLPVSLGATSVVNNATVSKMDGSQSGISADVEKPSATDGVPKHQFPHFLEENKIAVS
Oligonucleotide,E-score
CCGAATCA,-0.0151
ATGTATCG,0.233
AGCGAAAG,-0.0505
AATTGCCA,0.135
CTACCACC,-0.25
GCCTCACC,-0.258
ACTGGTAT,0.021

# Study 3 — method: protein-binding microarray; form: double-stranded DNA, one strand shown; medium: in vitro; concentration: not given; reading: higher = stronger binding
# Target: Protein max, full length (MAX, Homo sapiens, UniProt P61244-2, residues 1-151)
# Notes: k-mer, scored over probes, only values ≥0.25
Oligonucleotide,E-score
AAGCACAC,0.285
CCAACCAC,0.28
ACGCGGTA,0.319
ACGCCATG,0.383
ACGTTTTC,0.287
CATGATCG,0.303

# Single results of other studies
Molecule,target,assay,test system,setting,how to read,quantity,value
"PhoQ, residues 284 288 289 292 302 303 AEGLLW","PhoP, residues 12 14 15 18 19 VQGLL (Escherichia coli, UniProt P23836)","Sort-seq, measured: YFP reporter",E. coli,"PhoQ-PhoP variant library, added: 10 µM Mg2+","reference: high Mg2+ state, higher = stronger signaling",fold induction,10.4

# Some of these lines once more (study 2):
Oligonucleotide,E-score
CTACCACC,-0.25
GCCTCACC,-0.258
